Assay results of several laboratories.
Compare with care: the assays were run in different laboratories.
UCHL1: Ubiquitin carboxyl-terminal hydrolase isozyme L1 (UCHL1, Homo sapiens, UniProt P09936)
Chain of UniProt P09936 (whole entry, looked up): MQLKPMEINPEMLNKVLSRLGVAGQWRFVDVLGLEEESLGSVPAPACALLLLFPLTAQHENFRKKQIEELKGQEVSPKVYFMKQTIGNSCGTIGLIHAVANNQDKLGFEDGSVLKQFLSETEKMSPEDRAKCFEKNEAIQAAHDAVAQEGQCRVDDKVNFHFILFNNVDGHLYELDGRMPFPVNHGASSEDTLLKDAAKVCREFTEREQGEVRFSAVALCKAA

Under “AUC(0-last) per dose”, `C=CC(=O)N(C)CCOc1c(N)ncnc1-c1cc(F)cc(NC(=O)c2ccc(C3CC3)cc2F)c1C` is recorded as 4.37 ng·h/mL/mg (human; oral, 50 mg, day 3, geometric mean, given alone).
`CS(=O)(=O)c1ncc(Cl)c(C(=O)Nc2sc3c(c2C#N)CCCC3)n1` has a labelling of 6.62% (UCHL1; covalent, intact protein LC-MS; 12.5 µM).
With `CN(C)C(=O)c1cc2cnc(Nc3ccc(N4CCNCC4)cn3)nc2n1C1CCCC1` the AUC(0-last) was 6560 ng·h/mL (human, mild renal impairment, plasma; oral, 400 mg, geometric mean).
The AUC(0-last) of `CCOc1c([C@H](C)n2nc(C)c3c(N)ncnc32)cc(Cl)c(F)c1[C@@H]1CNC(=O)C1` is reported as 9.92 µM·h (human patients; oral, 15 mg once daily, cycle 1 day 15, monotherapy, geometric mean).
For `CC(F)(F)c1cc(F)ccc1-c1sc2cc(O)ccc2c1Oc1ccc(/C=C/C(=O)O)cc1`, the AUC(0-last) was 5730 ng·h/mL (human, serum; oral, 200 mg once daily, cycle 1 day 28, fasted, mean).
For `COC(=O)N[C@@H](C)CNc1nccc(-c2cn(C(C)C)nc2-c2cc(Cl)cc(NS(C)(=O)=O)c2F)n1`, the AUC(0-last) median was 23500 ng·h/mL (humans, plasma; oral, dose not given, day 1, single dose, together with: binimetinib).
With `Cc1cc(Nc2cc3ncccc3c(N[C@@H]3C[C@H]4CC[C@@H](C3)N4CCC#N)n2)n[nH]1` the AUC(0-last) was 16.6 ng·h/mL (human, plasma; 100 mg single dose, mean).
Under “AUC(0-last) fed/fasted ratio”, `C=CC(=O)N1CCC[C@@H](n2c(=O)n(-c3ccc(Oc4ccccc4)cc3)c3c(N)nccc32)C1` is recorded as 1.72 (human; oral, 240 mg; relative to: fed over fasted).
`O=C(CCl)NC1CCN(C(=O)C2COc3ccccc3O2)CC1` (stereo not drawn) has a labelling of 9.18% (UCHL1; covalent, intact protein LC-MS; 12.5 µM).
`Cc1noc(C)c1-c1cc(C(O)(c2ccccn2)c2ccccn2)c2nc(C3CC3)[nH]c2c1` has an AUC(0-last) of 4490 ng·h/mL (human, fasted, plasma; oral, 9 mg once daily, cycle 1 day 8).
`CC(C)n1nc(-c2ccc3oc(N)nc3c2)c2c(N)ncnc21` gave an AUC(0-last) of 236 ng·h/mL (human, plasma; oral, 2 mg once daily, cycle 1 day 15).
For `CC(C)NC(=O)COc1cccc(-c2nc(Nc3ccc4[nH]ncc4c3)c3ccccc3n2)c1`, the AUC(0-last) was 8430 ng·h/mL (human male, plasma; oral, 200 mg, day 5, fed, alone, geometric mean).

A few entries again:
`CS(=O)(=O)c1ncc(Cl)c(C(=O)Nc2sc3c(c2C#N)CCCC3)n1` has a labelling of 6.62% (UCHL1; covalent, intact protein LC-MS; 12.5 µM).
